Experimental data from different studies.
Parts stem from different laboratories: compare values within a part only.

Study 1
Target: RNA binding protein fox-1 homolog 2, RRM domain, GST-SBP tag (RBFOX2, Homo sapiens, UniProt O43251-10, residues 100-194)
Technique: RNA Bind-n-Seq
Form: RNA
Medium: in vitro
Tested at: 365 nM
Notes: natural RNA segment, single round, ends assumed
Reference: no-protein control
Reading: higher = stronger binding
Quantity: RBNS enrichment (R)
All sequences stand within: GGGAGUUCUACAGUCCGACGAUC … UGGAAUUCUCGGGUGCCAA
Construct (chain): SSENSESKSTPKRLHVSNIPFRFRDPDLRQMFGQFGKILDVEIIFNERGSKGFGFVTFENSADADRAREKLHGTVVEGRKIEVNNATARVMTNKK
UAUAUAUAUUUUCCAGGUGGUUUUUAGUCUUUACUGAUGAAAGGGUGUUCAUGUUAGUUUCUUCAAAACCCUAUCUAAUACUAGGCAAAGUAGCCAAGAGCCUUUUGUUU: 2.28
CACCGCACACGCUGUCGUCUUUUUUUCACAAGCUCAAUUGUUACUUUUCUCUGCUUCCUCAGCCCAGGAAGAACUUGUGUUGCAUUGGCUGUGAGAGCGGGAUGGGGACG: 0.761
GAAAAAACUUAAAUAUUUAUUUCUAUGCUUUGUUGCCUCUGAGAAUAAUGACAAUUUAUGAAUUUGUGUUUCAAAUUGAUAAAAUAUUUAGGUACAAAUAACAAGACUAA: 0.454
CAGAGCAGCUUGUUUCAGAUAGAAAUUCUCUAUGGGUUGAAAUGCCAAAAACAGAAAACAUGAUGUUGACUCAUGUAAUUUAGUCCAUUUUAGCAGAGCCUUUAGUGUUA: 0.572
ACCGCUCAGAGAGCCAUGGUUGCUCAGGGAUGCUGCUCCGGGAUGCUUGACUAACAGUCGAGGCAGUGAACUGGGUGUAGAAAGCGUCAGGAAAUGGCCACAUGUGUGGA: 0.331
GGAGACAAGAUGUAGACCCAGACAGAAGAAAUCUGCUUCCCUACCAUGGCUAUUCCAGCACCCCAACCUGUAAUUGCCAAGUCCUCUAAGGUACUAAUUUGUAGCUGCUC: 0.672
CAAGCAUGCUCAGUGCCUUUUGGUUUCCCCUCCUUCCCCUAGAUUCAGUUUUGCUCCCUCUGGGUUUUUAUAAGAUUUGCCAUGACAUUUCAUCUGGGUGGUCCAGAUAG: 4.31
CUGCACCCCCUCAUAGCAGUAGUGGCUUCGCCAUUCUGUUUUCUGCAGUGUCCUGUACAAAACUGUGCUGUGACUGUGCGGUAGGCCUGGACAUGGCAAAGAGAAUACAG: 0.207

Study 2
Target: Histone acetyltransferase KAT6A, winged helix 2, GST fusion (KAT6A, Homo sapiens, UniProt Q92794, residues 85-181)
Technique: protein binding microarray
Form: double-stranded DNA, one strand shown
Medium: in vitro
Tested at: not given
Notes: 8-mer, flanks averaged, mean of 2 arrays, mostly near background
Reference: not given
Reading: higher = stronger binding
Quantity: E-score
Construct (chain): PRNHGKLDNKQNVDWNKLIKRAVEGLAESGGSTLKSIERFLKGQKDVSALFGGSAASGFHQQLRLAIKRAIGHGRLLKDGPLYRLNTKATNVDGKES
CGCTCTGC: 0.123
AACGCAAT: 0.0366
AGGTTATC: -0.154
CGACCTCG: 0.194
AACAAGTG: -0.0688
ACGAACAC: 0.135
AGGGCCTC: -0.134
ATATAGAG: -0.182
CGGCTTTA: -0.0224
CAACTTAG: 0.166
AAATCTGC: 0.0686
CCAATCAA: 0.0209
CAATAATG: -0.195
CGGTAATC: -0.207
CCTCCGAA: -0.0185
AAGTATTC: -0.0687
CAGAATCA: 0.0826
AATCTAAG: 0.0254
CATAGGGC: -0.154
ATCTTAAC: 0.0156
TCCCAGAA: 0.0397

Study 3
Target: RING finger protein unkempt homolog, zinc fingers 1-6, GST-SBP tag (UNK, Homo sapiens, UniProt Q9C0B0, residues 30-357)
UniProt Q9C0B0, sequence (30-357, looked up): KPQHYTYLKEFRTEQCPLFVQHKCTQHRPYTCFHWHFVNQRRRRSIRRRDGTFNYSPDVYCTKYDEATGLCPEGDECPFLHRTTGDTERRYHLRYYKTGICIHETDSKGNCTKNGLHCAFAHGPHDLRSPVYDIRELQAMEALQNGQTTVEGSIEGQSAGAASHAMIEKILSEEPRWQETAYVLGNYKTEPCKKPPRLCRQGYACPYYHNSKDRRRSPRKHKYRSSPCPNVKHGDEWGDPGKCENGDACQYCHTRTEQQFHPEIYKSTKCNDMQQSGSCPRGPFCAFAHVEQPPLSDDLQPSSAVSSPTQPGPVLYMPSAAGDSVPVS
Technique: RNA Bind-n-Seq
Form: RNA
Medium: in vitro
Tested at: not given
Notes: RNA with constant flanks, human-mouse chimeric sites, ends assumed
Reference: input RNA pool
Reading: higher = stronger binding
Quantity: bound/input enrichment
All sequences stand within: GGGAGUUCUACAGUCCGACGAUC … CAACAGAGGAUUGAGCAUCA
AGAUUCCCCCUCCUGAGACCUCCUCCGAAGUUGGAGUCUCUUAUAGAUGGUUCAUCUCCUGUUAGCGUUUUAGUUUGGACCACCCAGCCUUGGACAAUUCCCGCCAACCAGGCAAUUUGC: 1.94 ratio
CCCUCCCCGGGCCACCCACCCCUCCCGGCUCCCCGCCGAGAUCCAGGUUUCUUCUGUUUUCAUAGCAAAUAAGAAAAAUGUUCUACGCACAUUUUGUCCUCAGUAAACGAGGGCCUCUGG: 0.44 ratio
GGAUUCCGCUUCCGGUUCCGUUGGGCUAGCAAGCUCCCUGAGCUACGUGUCUCUACGCUCUCAAUCCGCCAUCCAACAAACAUGGAUCAGGUAAUGCAGUUUGUGGAGCCCAGCCGGCAG: 0.0582 ratio
UUUCUACUGCAGCAAACGAUGCUAAGAGUGAAGGAUCCUAAGAAGUCCCUGGAUUUUUAUACGAGGGUUCUUGGACUGACCCUCCUGCAAAAAUGUGACUUCCCUGCUAUGAAGUUCUCG: 0.183 ratio
GGACAUCUGUCAAAUUGUUAUGUUCCUGUGAAACAAGUGAGCACUUUGAUACACUUCAUUUAGUUGUACAUCUGUAUGAUAGAGAAAUGUAAAUAUGUUAAUCCAAGCAAUGUGUCACUU: 0.408 ratio
GCAAAGGAUGAUGAGGCGGCAGCUGUUGCCCUUUCCUCCCUGAUUCAUGCUUUGGAUGACUUAGACAUGGUCGCCAUCGUCCGAUAUGCUUAUGACAAAAGAUCUAAUCCUCAAGUUGGU: 0.108 ratio
GCUCUUGGGAAUGUAAUCAGCGCCUUGGGGGACAAGAGCAAGAGAGCCACCCAUGUCCCUUACAGAGACUCUAAGCUAACAAGACUAUUGCAGGAUUCCCUCGGGGGUAACAGCCAAACC: 0.2 ratio
AAAGUGGACUAUGGCGAGUACAUGGAUAAAAAUAAUGUGAGGCGGCAAGCAACAACAAUCAUAGCUGAUAACAUUAUAUUUCUGAGUGACCAGACAAAAGAAAAGGCAUAGAACGGAUGA: 1.59 ratio

Study 4
Target: Prothrombin, mature alpha-thrombin (F2, Homo sapiens, UniProt P00734)
Technique: aptamer microarray, sandwich
Form: DNA with 2'F-ANA
Medium: in vitro
Tested at: 200 nM
Notes: whole 15-mer aptamer, many near background
Together with: Cy3 exosite-II aptamer, 400 nM
Reading: higher = stronger binding
Quantity: mean fluorescence intensity
Oligonucleotide: GGTTGGTGTGGTTGG
2'F-ANA at 1 4 5 6 7 8 10 11 14 15: 93.1 a.u.
2'F-ANA at 1 9 11 12 13: 256 a.u.
2'F-ANA at 1 2 4 5 6 8 9 10: 49.9 a.u.
2'F-ANA at 2 3 4 7 8 9 10 11 15: 219 a.u.
2'F-ANA at 2 3 4 5 6 7 8 9 10 13 15: 56.8 a.u.
2'F-ANA at 1 2 5 6 7 11 12 13 14: 51.6 a.u.
2'F-ANA at 1 3 4 7 8 11 13 14 15: 91.4 a.u.
2'F-ANA at 1 3 4 6 8 9 10 11 13: 55.4 a.u.
2'F-ANA at 1 4 5 6 9 10 11 12 13 14: 47.3 a.u.
2'F-ANA at 1 3 4 9 13 15: 116 a.u.
2'F-ANA at 1 4 6 7 8 9 11 12 13 14: 54.9 a.u.
2'F-ANA at 1 2 5 6 7 9 10 11 12 13 14: 59.2 a.u.
2'F-ANA at 2 3 6 7 13 14 15: 355 a.u.
2'F-ANA at 2 6 8 9 10 11 14 15: 80 a.u.
2'F-ANA at 2 3 5 6 7 9 11 13 14: 98.5 a.u.
2'F-ANA at 2 4 12 13: 456 a.u.
2'F-ANA at 3 5 6 7 14: 49.2 a.u.
2'F-ANA at 3 5 10 11 14 15: 52.5 a.u.
2'F-ANA at 5 7 8 9 13 14 15: 51.4 a.u.
2'F-ANA at 1 2 3 4 5 6 7 10 11 12 14: 88.6 a.u.
2'F-ANA at 1 2 4 5 6 8 9 14 15: 51.9 a.u.
2'F-ANA at 2 3 4 5 7 11 15: 95.9 a.u.
2'F-ANA at 1 4 5 6 8 9 10 12 13: 47.6 a.u.
2'F-ANA at 1 2 4 7 9 14 15: 294 a.u.
2'F-ANA at 2 4 6 7 8 10 14 15: 58.9 a.u.

A few entries again (study 4):
2'F-ANA at 1 4 5 6 9 10 11 12 13 14: 47.3 a.u.
2'F-ANA at 1 3 4 9 13 15: 116 a.u.
2'F-ANA at 1 4 6 7 8 9 11 12 13 14: 54.9 a.u.
2'F-ANA at 1 2 5 6 7 9 10 11 12 13 14: 59.2 a.u.
2'F-ANA at 2 3 6 7 13 14 15: 355 a.u.
2'F-ANA at 2 6 8 9 10 11 14 15: 80 a.u.
2'F-ANA at 2 3 5 6 7 9 11 13 14: 98.5 a.u.
